Published values gathered from unrelated publications.
Parts stem from different laboratories: compare values within a part only.

Study 1
Target: Replicase polyprotein 1ab, 3C-like proteinase (rep, Middle East respiratory syndrome-related coronavirus, UniProt K9N7C7)
Read-out: enzyme activity
Tested at: 10 µM
Quantity: inhibition
O=C1c2c(O)cc(O)cc2O[C@H](c2cc(O)c(O)c(O)c2)[C@H]1O: 18%
CC(C)c1cc(CNc2nc(Nc3cc(C4CC4)[nH]n3)cc(N3CCN(C)CC3)n2)on1: 9%
O=[N+]([O-])c1ccc(O)c2ncccc12: 7%
CNC(=O)ON(C(C)=O)C(=O)NC: 8%

Study 2
Cell line: HEK-293T
Read-out: pseudovirus infection
Organism: VSV pseudotyped with SARS-CoV-2 spike
Tested at: 10 µM
Time: 16 h
Relative to: vehicle-treated
Quantity: GFP-positive cells
C[C@H]1CNCCc2ccc(Cl)cc21: 87.4%
CN(N=O)C(=O)N[C@@H](C=O)[C@@H](O)[C@H](O)[C@H](O)CO: 84.2%
Cn1c(=O)c2[nH]cnc2n(C)c1=O: 106%
CC(=O)OCC(=O)[C@H]1CC[C@H]2[C@@H]3CCC4=CC(=O)CC[C@]4(C)[C@H]3CC[C@]12C: 87.4%

Study 3
Target: Histone acetyltransferase KAT6A, winged helix 1, GST fusion (KAT6A, Homo sapiens, UniProt Q92794, residues 1-85)
Method: protein binding microarray
Molecule type: double-stranded DNA, one strand shown
Medium: in vitro
Tested at: not given
Notes: 8-mer, flanks averaged, mean of 2 arrays, mostly near background
Relative to: not given
Reading: higher = stronger binding
Quantity: E-score
Target sequence (chain): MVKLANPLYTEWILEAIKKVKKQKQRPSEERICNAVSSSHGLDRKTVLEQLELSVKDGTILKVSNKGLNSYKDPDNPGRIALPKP
CAATTTTC: -0.242
GACCAATA: 0.0692
TCATCTAA: -0.164
ACGGAAAT: 0.165
GTGCGGTA: 0.34
AGAGGCGG: 0.222
ACCTAGAC: -0.0771
ACATCACG: 0.0542

Study 4
Target: Replicase polyprotein 1ab, nsp13 helicase (rep, Severe acute respiratory syndrome coronavirus 2, UniProt P0DTD1)
Mode: inhibitor
Tested at: 20 µM
Quantity: inhibition
CC(C)N(CCCCOCC(=O)NS(C)(=O)=O)c1cnc(-c2ccccc2)c(-c2ccccc2)n1: 9.46%
Oc1c(I)cc(Cl)c2cccnc12: 6.91%
CC(=O)O[C@H]1CC[C@@]2(C)C(=CC(=O)[C@@H]3[C@@H]2CC[C@]2(C)C(=O)CC[C@@H]32)C1: 0.81%
Cc1ccc2c(=O)c3ccccc3n(CCCN)c2c1C: 25.5%
Oc1cccc(-c2c3nc(c(-c4cccc(O)c4)c4ccc([nH]4)c(-c4cccc(O)c4)c4nc(c(-c5cccc(O)c5)c5ccc2[nH]5)CC4)C=C3)c1: 29.9%
CCC(=O)O[C@@H]1CC(=O)O[C@H](C)C/C=C/C=C/[C@H](O)[C@H](C)C[C@H](CC=O)[C@H](O[C@@H]2O[C@H](C)[C@@H](O[C@H]3C[C@@](C)(O)[C@@H](OC(=O)CC)[C@H](C)O3)[C@H](N(C)C)[C@H]2O)[C@H]1OC: -0.82%
CC(C)C[C@H](NC(=O)[C@H](Cc1ccccc1)NC(=O)c1cnccn1)B(O)O: 8.37%
CSc1ccccc1OCC(O)CNC(C)C (stereo not drawn): 1.97%
NCCS: 4.25%
Cn1c(=O)c2c(ncn2CCOC(=O)C(C)(C)Oc2ccc(Cl)cc2)n(C)c1=O: 1.04%
Cc1cc(C)c(CNC(=O)c2cc(-c3ccc(N4CCN(C)CC4)nc3)cc3c2c(C)cn3C(C)C)c(=O)[nH]1: 11.9%
Cc1cc(-c2nc3cc(F)ccc3s2)ccc1NC(=O)[C@@H](N)CCCCN: 6.75%
NCCC(O)(P(=O)(O)O)P(=O)(O)O: 6.3%
Oc1ccc(C(O)CNCCCCCCNCC(O)c2ccc(O)c(O)c2)cc1O (stereo not drawn): 7.13%
CN(C)N=Nc1ccc(C(=O)O)cc1: 1.89%
CSc1ccc2c(c1)C(N1CCN(C)CC1)Cc1ccccc1S2 (stereo not drawn): 7.91%
Cc1nc(C#Cc2ccnc(Cl)c2)c(C)n1-c1ccc(F)cc1: -1.57%
CCCCOC(=O)c1cc2c(cn1)[nH]c1ccccc12: 0.32%

Study 5
Target: Ras GTPase-activating protein-binding protein 1, C-terminal RGG region (G3BP1, Homo sapiens, UniProt Q13283)
Chain of UniProt Q13283 (whole entry, looked up): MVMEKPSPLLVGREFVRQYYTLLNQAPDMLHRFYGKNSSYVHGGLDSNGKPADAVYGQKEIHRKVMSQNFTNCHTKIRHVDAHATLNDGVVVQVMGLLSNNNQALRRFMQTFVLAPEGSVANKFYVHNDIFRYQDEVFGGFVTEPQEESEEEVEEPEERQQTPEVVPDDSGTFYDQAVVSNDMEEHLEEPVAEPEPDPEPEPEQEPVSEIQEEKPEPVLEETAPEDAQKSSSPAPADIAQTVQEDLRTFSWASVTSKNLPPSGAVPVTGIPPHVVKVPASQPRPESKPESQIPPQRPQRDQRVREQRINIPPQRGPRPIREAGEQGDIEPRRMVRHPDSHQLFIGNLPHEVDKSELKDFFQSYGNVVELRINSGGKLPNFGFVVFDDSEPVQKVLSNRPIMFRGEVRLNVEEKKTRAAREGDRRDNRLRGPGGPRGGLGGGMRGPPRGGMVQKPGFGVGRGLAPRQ
Method: RNA Bind-n-Seq
Molecule type: RNA
Medium: in vitro
Tested at: 1 µM
Notes: whole 134-nt RNA, ends assumed
Added: 150 mM KCl
Relative to: input library
Reading: higher = stronger binding
Quantity: log2 enrichment
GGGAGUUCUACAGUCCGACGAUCUCAAGUCCUGUGCUACACAUCGUAUGUACCGAAUCGGGAGGGUUUGGGUUUGGGAAAGUAUUAUGUUACGCCGUUCGGAUCUGCACUUCCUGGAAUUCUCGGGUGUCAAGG: 1.99
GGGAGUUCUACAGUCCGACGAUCUGGGAGGUGGAUUUUGUUUAUUUUUUUAGCUCAUUUCCAGGGGUGGGAAUUAUUUUUUAAUAUGUGUCAUGAAUAAAGUUGUUUUUGAAAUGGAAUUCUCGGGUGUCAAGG: 3.53
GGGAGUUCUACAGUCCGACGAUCGUCCUGUGCUACACAUCGUAUGUACCGAAUCAAACCCCCAAAUUUUUAAACCCCCAAAAAAGUAUUAUGUUACGCCGUUCGGAUCUGCACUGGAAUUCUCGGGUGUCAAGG: -0.869
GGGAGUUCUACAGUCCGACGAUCACCAUGCAGGUGGGCAUCUUUGGGAAGUGGGGCAAGGGGGGGAUAGGGAGGGGGGUAACACUUUGGGCACAGGUGGUCCCAGGUCGUUUCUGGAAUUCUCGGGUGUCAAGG: 2.19
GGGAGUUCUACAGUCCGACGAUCUGUUUAUCCAACAUAUGAUUUUGCCUGCCCCAUAGUUGACAGCAUCGAAGGUGUUACACAUGCCCUGAGAACAACAGAAUACCAUGACAGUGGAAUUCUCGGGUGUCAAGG: -0.908
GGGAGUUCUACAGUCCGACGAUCUUUGCUGAUUUCUGGCUGGCGGAUCAGCUGAACAGCCUGUCAGUGAUACUGAUGGACCUGGAAUAUAUGAUCUGCUUCUACAGUUUGGAGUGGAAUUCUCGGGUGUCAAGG: -2.44
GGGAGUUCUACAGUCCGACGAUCCCUGUGCUACACAUCGUAUGUACCGAAUCGGCCCCCCCGGGCCCCCCCGGGCCCCCCCGGGAAAGUAUUAUGUUACGCCGUUCGGAUCUGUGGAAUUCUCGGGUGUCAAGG: -1.83
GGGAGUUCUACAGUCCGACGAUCCCUCAAGUCCUGUGCUACACAUCGUAUGUACCGAAUCGGGGCCGGCCGGCCGGAAAGUAUUAUGUUACGCCGUUCGGAUCUGCACUUCCAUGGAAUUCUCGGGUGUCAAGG: -1.07

A few entries again (study 3):
TCATCTAA: -0.164
ACGGAAAT: 0.165
GTGCGGTA: 0.34
AGAGGCGG: 0.222
